Results collected from several papers.
Each numbered part is a random draw from the data of one study; scales do not carry over between parts. Substitutions count along the parent as printed.
Chain of UniProt Q9C0B0 (30-357, looked up): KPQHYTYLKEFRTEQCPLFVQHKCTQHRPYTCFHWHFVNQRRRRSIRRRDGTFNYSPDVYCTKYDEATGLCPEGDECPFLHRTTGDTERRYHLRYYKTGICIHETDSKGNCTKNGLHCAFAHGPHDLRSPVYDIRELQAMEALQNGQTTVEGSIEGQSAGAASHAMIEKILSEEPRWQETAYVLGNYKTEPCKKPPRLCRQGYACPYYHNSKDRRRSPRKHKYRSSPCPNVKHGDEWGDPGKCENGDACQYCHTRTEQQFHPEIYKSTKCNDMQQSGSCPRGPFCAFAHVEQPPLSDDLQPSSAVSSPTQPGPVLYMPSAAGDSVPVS

Block 1
Target: Histone acetyltransferase KAT6A, both winged helices, GST fusion (KAT6A, Homo sapiens, UniProt Q92794, residues 1-181)
Method: protein binding microarray
Molecule type: double-stranded DNA, one strand shown
Sample: in vitro
Tested at: not given
Notes: 8-mer, flanks averaged, mean of 2 arrays, mostly near background
Reference: not given
Reading: higher = stronger binding
Residues (chain): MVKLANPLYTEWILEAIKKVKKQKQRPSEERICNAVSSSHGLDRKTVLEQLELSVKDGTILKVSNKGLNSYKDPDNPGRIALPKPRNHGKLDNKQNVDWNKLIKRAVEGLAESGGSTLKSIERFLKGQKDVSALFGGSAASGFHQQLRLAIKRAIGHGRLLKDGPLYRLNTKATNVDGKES
Oligonucleotide	E-score
CGTTAATA	0.12
CAGGCCGG	0.113
TATAACGA	-0.0582
CCGAGGTC	0.0529
ATCGGAAG	0.0492
ATGAGACG	0.113
AAGAGGAT	-0.28
AGTTCGGA	-0.0575
CAATGGGA	-0.054
CTTAACGA	-0.113
AGACGAAC	-0.0651
AATAATCG	0.0171
TAGACCTA	-0.0342
AAAGTTGC	-0.0299
ACTCTGTA	0.00044

Block 2
Target: Centromere-binding protein 1, full length, His-tagged (CBF1, Saccharomyces cerevisiae, UniProt P17106, residues 1-351)
Chain of UniProt P17106 (whole entry, looked up): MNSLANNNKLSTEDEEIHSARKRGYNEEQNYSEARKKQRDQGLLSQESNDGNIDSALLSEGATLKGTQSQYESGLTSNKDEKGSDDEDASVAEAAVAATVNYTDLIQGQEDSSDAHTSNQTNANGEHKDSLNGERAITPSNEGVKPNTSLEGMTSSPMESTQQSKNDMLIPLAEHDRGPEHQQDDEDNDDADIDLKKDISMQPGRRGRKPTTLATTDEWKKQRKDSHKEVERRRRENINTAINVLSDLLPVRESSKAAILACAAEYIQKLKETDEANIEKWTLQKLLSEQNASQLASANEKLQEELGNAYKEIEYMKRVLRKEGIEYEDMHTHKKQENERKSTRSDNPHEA
Method: competition protein-binding microarray
Molecule type: double-stranded DNA, one strand shown
Sample: in vitro
Tested at: 2 µM
Notes: whole 60-bp probe, lowest competitor level
Together with: Pho4 competitor, 0.05 µM
Reading: higher = stronger binding
Shared flanks, not repeated: … GTCTTGATTCGCTTGACGCTGCTG
Oligonucleotide	fluorescence intensity [a.u.]
AAAGCGGTAATTTGTCACACTACTTCACATATCTAT	109
CTTTACCATTCCCATCACGGGAAGAGTGTGTTGGCA	178
CTTTCCCGATCTTTTCACGTGCTGTTAGCACATTTG	1000
CATACCCAACCTTGTCACCGCACTTAAGATATTTGT	69.4
CTTTCCCGATCTTGCTCTGTGGGTGTAGCACATTTG	74.9
CTTTCCCGATCTTGCATTGTGGGTGTAGCACATTTG	71.1
AAATTACTAAGTTGATAGGTGGGTGACGCCGTATGA	79.7
CTTTCCCGATCTTTTCACGTGCTTTTAGCACATTTG	1120
GTCTTGTCTCATTGAAACGTGGGTGTCCCCACTTCA	102
TAACTCAGATTGACGCTCGTGATGGCTTCTCCACTG	156
CGGCAAATCCTCTTCCACATGTGTGTCTTTGAATCA	90.9
CTATTTCCGTTACCCGCCGTGCAATACAGCATCGCT	67.9
CACTTCCTAACCCATCACGGGATACCGAATTGGGTA	714

Block 3
Target: CCND1, cyclin fold, Cln2 fusion (human)
Method: yeast growth competition, sequencing
Sample: yeast
Notes: weak parent motif
Reference: not given
Reading: higher = stronger binding
Starting sequence: PKMYT1 docking peptide (human); SFEPRNLLSLFED
Variant	normalised enrichment score
SFEPRNLRSLFED [L8R]	1.08
EFEPRNLLSLFED [S1E]	0.651
SFEPRNCLSLFED [L7C]	1.42
SFEPCNLLSLFED [R5C]	0.955
SFEPRNLDSLFED [L8D]	0.0158
SFEPRNLLSDFED [L10D]	1.04
SFEPRNLLSLEED [F11E]	0.394
SFEPYNLLSLFED [R5Y]	1.17
SFEPRNYLSLFED [L7Y]	1.1
SFEPRNLLSLFRD [E12R]	0.632
SFEPRNLLSLCED [F11C]	0.882
SFERRNLLSLFED [P4R]	1.55
SFEPRNLLSLFAD [E12A]	1.19

Block 4
Target: Sal-like protein 4, full length isoform A (SALL4, Homo sapiens, UniProt Q9UJQ4, residues 1-1053)
Chain of UniProt Q9UJQ4 (whole entry, looked up): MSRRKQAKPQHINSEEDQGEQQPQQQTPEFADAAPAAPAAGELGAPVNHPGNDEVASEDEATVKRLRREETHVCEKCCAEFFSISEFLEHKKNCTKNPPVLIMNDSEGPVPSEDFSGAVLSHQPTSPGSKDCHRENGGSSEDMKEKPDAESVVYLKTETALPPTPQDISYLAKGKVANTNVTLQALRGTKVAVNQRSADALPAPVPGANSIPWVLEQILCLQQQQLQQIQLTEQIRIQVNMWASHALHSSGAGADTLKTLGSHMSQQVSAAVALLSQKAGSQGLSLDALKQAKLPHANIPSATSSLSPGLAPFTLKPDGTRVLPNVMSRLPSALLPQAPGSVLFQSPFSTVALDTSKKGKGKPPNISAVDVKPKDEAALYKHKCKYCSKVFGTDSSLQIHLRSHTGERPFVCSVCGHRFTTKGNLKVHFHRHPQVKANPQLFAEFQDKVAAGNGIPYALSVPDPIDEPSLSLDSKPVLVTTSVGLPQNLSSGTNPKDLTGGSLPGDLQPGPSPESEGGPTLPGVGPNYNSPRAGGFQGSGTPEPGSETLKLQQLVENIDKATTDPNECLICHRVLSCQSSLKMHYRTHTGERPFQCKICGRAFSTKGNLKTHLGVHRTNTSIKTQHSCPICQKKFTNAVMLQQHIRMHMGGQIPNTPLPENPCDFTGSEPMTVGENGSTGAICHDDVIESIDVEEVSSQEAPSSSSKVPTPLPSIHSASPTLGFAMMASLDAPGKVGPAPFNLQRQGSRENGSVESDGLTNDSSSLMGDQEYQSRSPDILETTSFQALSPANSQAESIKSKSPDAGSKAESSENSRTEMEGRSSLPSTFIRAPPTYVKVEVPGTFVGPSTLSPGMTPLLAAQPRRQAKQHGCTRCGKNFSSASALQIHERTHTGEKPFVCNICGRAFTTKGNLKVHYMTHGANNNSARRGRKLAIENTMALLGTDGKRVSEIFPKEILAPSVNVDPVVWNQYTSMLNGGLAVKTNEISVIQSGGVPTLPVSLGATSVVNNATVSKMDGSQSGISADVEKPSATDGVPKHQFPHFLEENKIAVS
Method: universal PBM
Molecule type: double-stranded DNA, one strand shown
Sample: in vitro
Tested at: 600 nM
Notes: 8-mer, flanks averaged, mean of replicates
Reading: higher = stronger binding
Oligonucleotide	E-score
ACCGTATA	0.0669
GACTTATA	0.3
AATAGCTC	-0.0362
TCGAGTAA	0.106
CCAGGCCC	-0.361
CACAAGGA	-0.0419
ATCCCCAA	-0.0206
GCCTAAAC	-0.092
AGGCTTCG	-0.241
CCCGCTTA	-0.156
AACCAAGC	-0.113
GACGGTCC	-0.361
AGCCTCCC	-0.217
CTCTCTTC	-0.191
CCGTCTTC	-0.18
ATGAGCAA	0.159
CGCGTGTC	-0.241
AATCTCAC	-0.00239
CGATACTA	0.163
AGAGTGGC	-0.156
ACTTGCAA	0.196
CCGGAACA	-0.0887
AAGCGCAG	-0.166
CTAGAGAC	-0.167

Block 5
Target: Interferon regulatory factor 7, full length, phosphomimetic (IRF7, Homo sapiens, UniProt Q92985, residues 1-503, S471D/S472D/S475D/S476D/S477D/S483D/S484D/S487D)
Method: protein-binding microarray
Molecule type: double-stranded DNA, one strand shown
Sample: in vitro
Tested at: 2200 nM top
Notes: 60-bp whole probe
Together with: salmon DNA 0.4 mg/ml
Reference: random background probes
Reading: higher = stronger binding
Shared flanks, not repeated: GCCTAGCAC … GTCTTGATTCGCTTGACGCTGCTG
Construct (chain): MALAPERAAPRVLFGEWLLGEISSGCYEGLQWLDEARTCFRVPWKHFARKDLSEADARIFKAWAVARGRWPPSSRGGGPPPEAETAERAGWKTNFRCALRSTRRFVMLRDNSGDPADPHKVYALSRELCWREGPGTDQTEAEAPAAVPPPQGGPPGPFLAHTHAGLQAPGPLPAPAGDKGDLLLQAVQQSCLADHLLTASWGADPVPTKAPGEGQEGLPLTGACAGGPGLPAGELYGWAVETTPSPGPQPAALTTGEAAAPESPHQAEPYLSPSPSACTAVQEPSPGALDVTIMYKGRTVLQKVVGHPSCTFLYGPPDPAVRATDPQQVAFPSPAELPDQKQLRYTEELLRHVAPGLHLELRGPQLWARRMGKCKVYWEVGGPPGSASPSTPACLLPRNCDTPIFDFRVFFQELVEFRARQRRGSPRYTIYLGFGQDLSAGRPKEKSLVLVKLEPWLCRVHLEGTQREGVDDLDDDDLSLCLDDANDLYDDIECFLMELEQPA
Oligonucleotide	fitted relative affinity [z-score]
CTGGACCCACTTCCAAATGGGTGCTAG	-0.204
TTAGGACTGGACACTGGGTCAGTGCTA	-0.994
GACGGTATCTGTATCGGGACGTGCTAG	0.521
GACGATCTCAATCTCGAGACGTGCTAG	0.219
TTAGATCTCAATATCGATTAGTGCTAG	-0.0678
TTAGGACTGGAATTTCGGTTAGTGCTA	1.88
TTAGATATCAGACTGGACTAGTGCTAG	-0.332
TGAGAACTGGGGACTGGATTAGTGCTA	-0.492
TTAGATATCAGCATCGATTAGTGCTAG	-0.298
TTAGGTATCCTTCTCCTTTGGTGCTAG	1.23
TTAGGTAGCCTACTGCTTTAGTGCTAG	-0.0711
TTTGGACTGCTTTTCCTTTAGTGCTAG	1.86
GACGTACTGGGGTTTCGAGACGTGCTA	1.28
TCATATTTATAAATTATACTGTGCTAG	0.401
GACGGTTTCCTTCTCCCGACGTGCTAG	3.28
TTAGATATCAGACTGTATTAGTGCTAG	-0.138
TCAAAAATCTTTGTTGGAACTGTGCTA	-0.647
TTAGCTATCCTTATCCTTTAGTGCTAG	1.07

Single results of other studies
Oligonucleotide	target	test	test system	setting	how to read	measurement	value
GGGAGUUCUACAGUCCGACGAUCCUCUUUUCCAGGUUGGAUGUACUGGAAAAGUCACCGGAAUUGAUCACAUUAAAGAGCCCGCCGAUGACUCAGUAAAUAAUGUCAGGAAGGACGAUCCAACACUUCUGUCUUCAGGGAGAGCAACAGAGGAUUGAGCAUCA	RING finger protein unkempt homolog, zinc fingers 1-6, SBP tag (UNK, Homo sapiens, UniProt Q9C0B0, residues 30-357)	RNA Bind-n-Seq	RNA, in vitro	100 nM, RNA with constant flanks, ends assumed	reference: input RNA pool, higher = stronger binding	bound/input enrichment	0.39 ratio
